Results gathered from unrelated publications.
Lines come from different studies, so protocols differ.
Partner: itself
B1: PKD2 704-968 (Homo sapiens, UniProt Q13563); sequence looked up; chain IRKGYHKALVKLKLKKNTVDDISESLRQGGGKLNFDELRQDLKGKGHTDAEIEAIFTKYDQDGDQELTEHEHQQMRDDLEKEREDLDLDHSSLPRPMSSRSFPRSLDDSEEDDDEDSGHSSRRRGSISSGVSYEEFQVLVRRVDRMEHSIGSIVSKIDAVIVKLEIMERAKLKRREVLGRLLDGVAEDERLGRDSEIHREQMERLVREELERWESDDAASQISHGLGTPVGLNGQPRPRSSRPSSSQSTEGMEGAGGNGSSNVHV
B2: cooS 1-639 (Rhodospirillum rubrum, UniProt P31896); chain MTHHDCAHCSSDACATEMLNLAEANSIETAWHRYEKQQPQCGFGSAGLCCRICLKGPCRIDPFGEGPKYGVCGADRDTIVARHLVRMIAAGTAAHSEHGRHIALAMQHISQGELHDYSIRDEAKLYAIAKTLGVATEGRGLLAIVGDLAAITLGDFQNQDYDKPCAWLAASLTPRRVKRLGDLGLLPHNIDASVAQTMSRTHVGCDADPTNLILGGLRVAMADLDGSMLATELSDALFGTPQPVVSAANLGVMKRGAVNIAVNGHNPMLSDIICDVAADLRDEAIAAGAAEGINIIGICCTGHEVMMRHGVPLATNYLSQELPILTGALEAMVVDVQCIMPSLPRIAECFHTQIITTDKHNKISGATHVPFDEHKAVETAKTIIRMAIAAFGRRDPNRVAIPAFKQKSIVGFSAEAVVAALAKVNADDPLKPLVDNVVNGNIQGIVLFVGCNTTKVQQDSAYVDLAKSLAKRNVLVLATGCAAGAFAKAGLMTSEATTQYAGEGLKGVLSAIGTAAGLGGPLPLVMHMGSCVDNSRAVALATALANKLGVDLSDLPLVASAPECMSEKALAIGSWAVTIGLPTHVGSVPPVIGSQIVTKLVTETAKDLVGGYFIVDTDPKSAGDKLYAAIQERRAGLGL
B3: halA (Haloferax volcanii, UniProt D4GZ39); sequence looked up; chain MSLGTDPLDALEIPDGTTVEEHDLVTDGDVVVGGQSTVEFGVRGRNVLAGERVTFGGDIEAEADCRLDMLDDVAGNVLVGNDAYLGERVHIAGRLMVSGDLDIGDDVDIEEGFEANGWIVIRNPIPTLVFYFIVLSQLLRLGEDEAADELAETLAGESPHDPLVIPRNATVSDDAWRVSTPAHVGSDCRIHGNIRAKSIDLAEDNNVFGSLRARDDIVVGSGTRIHGDVTTRNGEVRIHEDARVLGDVSCNDLVLEAGAHVDGTMRARGEMRIHRDNLPREAE
B4: dsh 12-92 (Drosophila melanogaster, UniProt P51140); sequence looked up; chain KVIYHIDDETTPYLVKIPIPSAQVTLRDFKLVLNKQNNNYKYFFKSMDADFGVVKEEIADDSTILPCFNGRVVSWLVSADG
B5: NINJ1 x (Homo sapiens, UniProt Q92982); sequence looked up; chain MDSGTEEYELNGGLPPGTPGSPDASPARWGWRHGPINVNHYASKKSAAESMLDIALLMANASQLKAVVEQGPSFAYYTTLVTLISISLVLQIGVGVLLIFLVKYDLNNPAKHAKLDFLNNLATGLVFIIVVVNIFITAFGVQKPLMDMAPQQ
B6: clcA 1-465 C85A/I422A/L423A/I426A/L430A/L434A (Escherichia coli, UniProt P37019); chain MKTDTPSLETPQAARLRRRQLIRQLLERDKTPLAILFMAAVVGTLVGLAAVAFDKGVAWLQNQRMGALVHTADNYPLLLTVAFLASAVLAMFGYFLVRKYAPEAGGSGIPEIEGALEDQRPVRWWRVLPVKFFGGLGTLGGGMVLGREGPTVQIGGNIGRMVLDIFRLKGDEARHTLLATGAAAGLAAAFNAPLAGILFIIEEMRPQFRYTLISIKAVFIGVIMSTIMYRIFNHEVALIDVGKLSDAPLNTLWLYLILGIIFGIFGPIFNKWVLGMQDLLHRVHGGNITKWVLMGGAIGGLCGLLGFVAPATSGGGFNLIPIATAGNFSMGMLVFIFVARVITTLLCFSSGAPGGIFAPMLALGTVLGTAFGMVAVELFPQYHLEAGTFAIAGMGALLAASIRAPLTGIILVLEMTDNYQLAAPMAITGAGATALAQFTGGKPLYSAILARTLAKQEAEQLARSK
B7: SPOP E47Q (Homo sapiens, UniProt O43791); sequence looked up; chain MSRVPSPPPPAEMSSGPVAESWCYTQIKVVKFSYMWTINNFSFCREQMGEVIKSSTFSSGANDKLKWCLRVNPKGLDEESKDYLSLYLLLVSCPKSEVRAKFKFSILNAKGEETKAMESQRAYRFVQGKDWGFKKFIRRDFLLDEANGLLPDDKLTLFCEVSVVQDSVNISGQNTMNMVKVPECRLADELGGLWENSRFTDCCLCVAGQEFQAHKAILAARSPVFSAMFEHEMEESKKNRVEINDVEPEVFKEMMCFIYTGKAPNLDKMADDLLAAADKYALERLKVMCEDALCSNLSVENAAEILILADLHSADQLKTQAVDFINYHASDVLETSGWKSMVVSHPHLVAEAYRSLASAQCPFLGPPRKRLKQS
B8: spnC 913-1471 (Saccharopolyspora spinosa, UniProt Q9ALM4); sequence looked up; chain AASDEARAVSDPAAGWFWQAVARQDLKSVSDALDLDADAPLSATLPALSVWHRQERERVLADGWRYRVDWVRVAPQPVRRTRETWLLVVPPGGIEEALVERLTDALNTRGISTLRLDVPPAATSGELATELRAAADGDPVKAILSLTALDERPHPECKDVPSGIALLLNLVKALGEADLRIPLWTITRGAVKAGPADRLLRPMQAQAWGLGRVAALEHPERWGGLIDLPDSLDGDVLTRLGEALTNGLAEDQLAIRQSGVLARRLVPAPANQPAGRKWRPRGSALITGGLGAVGAQVARWLAEIGAERIVLTSRRGNQAAGAAELEAELRALGAQVSIVACDVTDRAEMSALLAEFDVTAVFHAAGVGRLLPLAETDQNGLAEICAAKVRGAQVLDELCDSTDLDAFVLFSSGAGVWGGGGQGAYGAANAFLDTLAEQRRARGLPATSISWGSWAGGGMADGAAGEHLRRRGIRPMPAASAILALQEVLDQDETCVSIADVDWDRFVPTFAATRATRLFDEVPAARKAMPANGPAEPGGSPFARNLAELPEAQRRHELV
B9: SPOP S80R (Homo sapiens, UniProt O43791); sequence looked up; chain MSRVPSPPPPAEMSSGPVAESWCYTQIKVVKFSYMWTINNFSFCREEMGEVIKSSTFSSGANDKLKWCLRVNPKGLDEERKDYLSLYLLLVSCPKSEVRAKFKFSILNAKGEETKAMESQRAYRFVQGKDWGFKKFIRRDFLLDEANGLLPDDKLTLFCEVSVVQDSVNISGQNTMNMVKVPECRLADELGGLWENSRFTDCCLCVAGQEFQAHKAILAARSPVFSAMFEHEMEESKKNRVEINDVEPEVFKEMMCFIYTGKAPNLDKMADDLLAAADKYALERLKVMCEDALCSNLSVENAAEILILADLHSADQLKTQAVDFINYHASDVLETSGWKSMVVSHPHLVAEAYRSLASAQCPFLGPPRKRLKQS
B10: ABCC1 P1120F (Homo sapiens, UniProt P33527); sequence looked up; chain MALRGFCSADGSDPLWDWNVTWNTSNPDFTKCFQNTVLVWVPCFYLWACFPFYFLYLSRHDRGYIQMTPLNKTKTALGFLLWIVCWADLFYSFWERSRGIFLAPVFLVSPTLLGITMLLATFLIQLERRKGVQSSGIMLTFWLVALVCALAILRSKIMTALKEDAQVDLFRDITFYVYFSLLLIQLVLSCFSDRSPLFSETIHDPNPCPESSASFLSRITFWWITGLIVRGYRQPLEGSDLWSLNKEDTSEQVVPVLVKNWKKECAKTRKQPVKVVYSSKDPAQPKESSKVDANEEVEALIVKSPQKEWNPSLFKVLYKTFGPYFLMSFFFKAIHDLMMFSGPQILKLLIKFVNDTKAPDWQGYFYTVLLFVTACLQTLVLHQYFHICFVSGMRIKTAVIGAVYRKALVITNSARKSSTVGEIVNLMSVDAQRFMDLATYINMIWSAPLQVILALYLLWLNLGPSVLAGVAVMVLMVPVNAVMAMKTKTYQVAHMKSKDNRIKLMNEILNGIKVLKLYAWELAFKDKVLAIRQEELKVLKKSAYLSAVGTFTWVCTPFLVALCTFAVYVTIDENNILDAQTAFVSLALFNILRFPLNILPMVISSIVQASVSLKRLRIFLSHEELEPDSIERRPVKDGGGTNSITVRNATFTWARSDPPTLNGITFSIPEGALVAVVGQVGCGKSSLLSALLAEMDKVEGHVAIKGSVAYVPQQAWIQNDSLRENILFGCQLEEPYYRSVIQACALLPDLEILPSGDRTEIGEKGVNLSGGQKQRVSLARAVYSNADIYLFDDPLSAVDAHVGKHIFENVIGPKGMLKNKTRILVTHSMSYLPQVDVIIVMSGGKISEMGSYQELLARDGAFAEFLRTYASTEQEQDAEENGVTGVSGPGKEAKQMENGMLVTDSAGKQLQRQLSSSSSYSGDISRHHNSTAELQKAEAKKEETWKLMEADKAQTGQVKLSVYWDYMKAIGLFISFLSIFLFMCNHVSALASNYWLSLWTDDPIVNGTQEHTKVRLSVYGALGISQGIAVFGYSMAVSIGGILASRCLHVDLLHSILRSPMSFFERTPSGNLVNRFSKELDTVDSMIPEVIKMFMGSLFNVIGACIVILLATPIAAIIIFPLGLIYFFVQRFYVASSRQLKRLESVSRSPVYSHFNETLLGVSVIRAFEEQERFIHQSDLKVDENQKAYYPSIVANRWLAVRLECVGNCIVLFAALFAVISRHSLSAGLVGLSVSYSLQVTTYLNWLVRMSSEMETNIVAVERLKEYSETEKEAPWQIQETAPPSSWPQVGRVEFRNYCLRYREDLDFVLRHINVTINGGEKVGIVGRTGAGKSSLTLGLFRINESAEGEIIIDGINIAKIGLHDLRFKITIIPQDPVLFSGSLRMNLDPFSQYSDEEVWTSLELAHLKDFVSALPDKLDHECAEGGENLSVGQRQLVCLARALLRKTKILVLDEATAAVDLETDDLIQSTIRTQFEDCTVLTIAHRLNTIMDYTRVIVLDKGEIQEYGAPSDLLQQRGLFYSMAKDAGLV
B11: PHYA 1-950 (Arabidopsis thaliana, UniProt P14712); phytochromobilin thioether linked; chain GMSGSRPTQSSEGSRRSRHSARIIAQTTVDAKLHADFEESGSSFDYSTSVRVTGPVVENQPPRSDKVTTTYLHHIQKGKLIQPFGCLLALDEKTFKVIAYSENASELLTMASHAVPSVGEHPVLGIGTDIRSLFTAPSASALQKALGFGDVSLLNPILVHCRTSAKPFYAIIHRVTGSIIIDFEPVKPYEVPMTAAGALQSYKLAAKAITRLQSLPSGSMERLCDTMVQEVFELTGYDRVMAYKFHEDDHGEVVSEVTKPGLEPYLGLHYPATDIPQAARFLFMKNKVRMIVDCNAKHARVLQDEKLSFDLTLCGSTLRAPHSCHLQYMANMDSIASLVMAVVVNEEDGEGDAPDATTQPQKRKRLWGLVVCHNTTPRFVPFPLRYACEFLAQVFAIHVNKEVELDNQMVEKNILRTQTLLCDMLMRDAPLGIVSQSPNIMDLVKCDGAALLYKDKIWKLGTTPSEFHLQEIASWLCEYHMDSTGLSTDSLHDAGFPRALSLGDSVCGMAAVRISSKDMIFWFRSHTAGEVRWGGAKHDPDDRDDARRMHPRSSFKAFLEVVKTRSLPWKDYEMDAIHSLQLILRNAFKDSETTDVNTKVIYSKLNDLKIDGIQELEAVTSEMVRLIETATVPILAVDSDGLVNGWNTKIAELTGLSVDEAIGKHFLTLVEDSSVEIVKRMLENALEGTEEQNVQFEIKTHLSRADAGPISLVVNACASRDLHENVVGVCFVAHDLTGQKTVMDKFTRIEGDYKAIIQNPNPLIPPIFGTDEFGWCTEWNPAMSKLTGLKREEVIDKMLLGEVFGTQKSCCRLKNQEAFVNLGIVLNNAVTSQDPEKVSFAFFTRGGKYVECLLCVSKKLDREGVVTGVFCFLQLASHELQQALHVQRLAERTAVKRLKALAYIKRQIRNPLSGIMFTRKMIEGTELGPEQRRILQTSALCQKQLSKILDD

`B1 (PKD2 704-968)` — result for binding: “binds” (HDX-MS).
`B2 (cooS 1-639)` — result for binding: “binds” (SEC-MALS).
`IMPDH1 (Homo sapiens, UniProt P20839)`: binding “binds” (negative stain electron microscopy).
`B3 (halA)`: binding “binds” (negative-stain TEM).
`B4 (dsh 12-92)`: binding “binds” (SEC).
Under binding, `B5 (NINJ1 x)` is recorded as “binds” (negative-stain EM).
`B6` — result for binding: “binds” (SEC).
`B7 (SPOP E47Q)`: binding “binds” (negative-stain TEM).
For `B8 (spnC 913-1471)`, binding read “binds” (crystal structure; with: NADP+).
`NYSGYSSYGQSQSGY (TAF15 49-63 (Homo sapiens, UniProt Q92804); N-acetyl/C-amide; sequence looked up)` — result for binding: “binds” (negative-stain TEM; peptide; peptide).
`B9 (SPOP S80R)`: binding “binds” (negative-stain TEM).
Under binding, `EHI_164900 (Entamoeba histolytica, UniProt C4M1Y3)` is recorded as “binds” (immunoblot).
For `B10 (ABCC1 P1120F)`, binding read “binds” (SEC).
`B11 (PHYA 1-950)` — result for binding: “binds” (SEC).
